Results collected from several papers.
Protocols differ between the studies behind these lines. ± marks the error that the study gave.
Organism: Plasmodium falciparum

COc1ccc(Br)cc1CN(C)C(c1ccccc1)c1nnnn1-c1ccccc1C (single isomer, unassigned; (+)) — EC50 (parasite growth, SYBR Green; 3D7; 72 h): 1.9 µM
O=C(/C=C/c1ccc(O)cc1)c1ccc(F)cc1 — EC50 (parasite growth; 3D7; 72 h, blood stage): > 41.3 µM
CC(C)C[C@@H]1NC(=O)[C@@H](Cc2ccccc2)NC(=O)[C@H](CCCCCC(=O)C2CO2)NC(=O)[C@@H]2CCCCN2C1=O (stereo partly drawn) — EC50 (parasite growth, SYBR Green I; 3D7, drug-sensitive; 72 h): 0.13 ± 0.04 µM
COC(=O)c1[nH]cc(-c2c[nH]c3ccc(Cl)cc23)c1-c1c[nH]c2ccc(Cl)cc12 — EC50 (parasite growth, SYBR Green; 3D7; 72 h, blood stage): > 10 µM
O=C(/C=C/c1ccc(CN2CCCCC2)c(O)c1)c1ccc(F)cc1 — EC50 (parasite growth; 3D7; 72 h, blood stage): 0.08 µM
O=C(NC1CCCC1)[C@@H]1CCCCOc2cccc(c2)C[C@H](N2CCCC2=O)C(=O)N[C@@H](CCN2CCOCC2)C(=O)N1 — EC50 (parasite growth; fresh clinical isolates, Uganda; geometric mean, ex vivo): 0.018 µM
O=C(/C=C/c1ccc(O)c(CN2CCOCC2)c1)c1ccc(F)cc1 — EC50 (parasite growth; 3D7; 72 h, blood stage): > 29.3 µM
COc1ccc(C(F)(F)F)cc1CN(C)C(c1cccnc1)c1nnnn1-c1ccccc1C (single isomer, unassigned; (-)) — EC50 (parasite growth, SYBR Green; 3D7; 72 h): 1.2 µM
Cc1cc(Nc2ccc(S(F)(F)(F)(F)F)cc2)n2nc(C(C)(F)F)nc2n1 — EC50 (liver-stage infection rate; human hepatocytes, NF54): 7 µg/mL
Cc1cc(Nc2ccccc2)n2ncnc2n1 — EC50 (parasite growth, [3H]hypoxanthine uptake; 3D7): > 100 µM
Cc1ncc(C(C(=O)N(C)c2ccccc2C)N(Cc2cccc(C(F)(F)F)c2)C2CC2)cn1 (stereo not drawn) — EC50 (parasite growth, SYBR Green; Dd2; 72 h): 9.8 µM
Cc1cn([C@@H]2C[C@H](O)[C@@H](CNC(=O)Nc3ccc(C(C)(C)C)cc3)O2)c(=O)[nH]c1=O — EC50 (parasite growth, SYBR Green; 3D7; 48 h, blood stage): ~2 µM
O=C(O)c1cccc(C(=O)NCc2ccc(C(=O)NNC(=O)[C@H]3O[C@@H]3C(=O)N(Cc3cccc4ccccc34)Cc3cccc4ccccc34)cc2)c1 — EC50 (parasite replication, flow cytometry; 75 h, synchronous ring stage): 70 ± 20 µM
COc1cc2nccc(Oc3ccc(NC(=O)Nc4cc(C(F)(F)F)ccc4F)c(F)c3)c2cc1OC — EC50 (parasite growth, SYBR Green; 3D7; blood stage): > 5 µM
O=C(/C=C/c1cccc(O)c1)c1ccc(F)cc1 — EC50 (parasite growth; 3D7; 72 h, blood stage): 26.1 µM
Cc1cn([C@@H]2C[C@H](O)[C@@H](CNC(=O)Nc3ccc(Cl)cc3)O2)c(=O)[nH]c1=O — EC50 (parasite growth, SYBR Green; 3D7; 48 h, blood stage): ~2 µM
CC1CCN(Cc2cc(/C=C/C(=O)c3ccc(Cl)cc3)ccc2O)CC1 — EC50 (parasite growth; 3D7; 72 h, blood stage): 17 µM
Cc1ncccc1C(c1nnnn1C1CC1)N(C1CC1)C1(c2cccc(C(F)(F)F)c2)CC1 (stereo not drawn) — EC50 (parasite growth, SYBR Green; 3D7; 72 h): > 30 µM

For quick reference, copied from above:
O=C(/C=C/c1cccc(O)c1)c1ccc(F)cc1 — EC50 (parasite growth; 3D7; 72 h, blood stage): 26.1 µM
Cc1cn([C@@H]2C[C@H](O)[C@@H](CNC(=O)Nc3ccc(Cl)cc3)O2)c(=O)[nH]c1=O — EC50 (parasite growth, SYBR Green; 3D7; 48 h, blood stage): ~2 µM
CC1CCN(Cc2cc(/C=C/C(=O)c3ccc(Cl)cc3)ccc2O)CC1 — EC50 (parasite growth; 3D7; 72 h, blood stage): 17 µM
